Published values collected from several papers.
Each numbered part is a random draw from the data of one study; scales do not carry over between parts. Substitutions count along the parent as printed.

Block 1 — target: CCND1, cyclin fold, Cln2 fusion (human); method: yeast growth competition, sequencing; matrix: yeast; setting: weak parent motif; relative to: not given; direction: higher = stronger binding
Starting sequence: E2F1 docking peptide (human); PPVKRRLDLETDH; partner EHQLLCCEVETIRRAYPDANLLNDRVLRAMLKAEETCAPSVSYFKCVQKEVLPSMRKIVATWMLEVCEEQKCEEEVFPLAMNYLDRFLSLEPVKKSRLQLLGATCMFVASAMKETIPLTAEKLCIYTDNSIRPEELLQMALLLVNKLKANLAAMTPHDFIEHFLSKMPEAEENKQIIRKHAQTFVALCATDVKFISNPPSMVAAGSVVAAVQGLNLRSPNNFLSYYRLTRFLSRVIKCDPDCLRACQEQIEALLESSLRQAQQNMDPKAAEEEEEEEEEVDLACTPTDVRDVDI
| Variant | normalised enrichment score |
| --- | --- |
| L7H | -0.0456 |
| R5F | 0.842 |
| P2R | -0.189 |
| K4H | 0.376 |
| E10T | 0.217 |
| E10W | 0.131 |
| D8P | 0.0719 |
| D8H | -0.522 |
| L7G | 0.186 |
| H13C | 0.893 |
| K4Y | -0.193 |
| T11P | 1.55 |
| D8S | 1.08 |

Block 2 — method: protein-binding microarray; form: double-stranded DNA, one strand shown; matrix: in vitro; tested at: 250 nM; setting: 60-bp whole probe; with: salmon DNA 0.4 mg/ml; relative to: random background probes; direction: higher = stronger binding; all sequences stand within: GCCTAGCAC … GTCTTGATTCGCTTGACGCTGCTG
Target: Interferon regulatory factor 7, full length, phosphomimetic (IRF7, Homo sapiens, UniProt Q92985, residues 1-503, S101K/S471D/S472D/S475D/S476D/S477D/S483D/S484D/S487D)
Residues (chain): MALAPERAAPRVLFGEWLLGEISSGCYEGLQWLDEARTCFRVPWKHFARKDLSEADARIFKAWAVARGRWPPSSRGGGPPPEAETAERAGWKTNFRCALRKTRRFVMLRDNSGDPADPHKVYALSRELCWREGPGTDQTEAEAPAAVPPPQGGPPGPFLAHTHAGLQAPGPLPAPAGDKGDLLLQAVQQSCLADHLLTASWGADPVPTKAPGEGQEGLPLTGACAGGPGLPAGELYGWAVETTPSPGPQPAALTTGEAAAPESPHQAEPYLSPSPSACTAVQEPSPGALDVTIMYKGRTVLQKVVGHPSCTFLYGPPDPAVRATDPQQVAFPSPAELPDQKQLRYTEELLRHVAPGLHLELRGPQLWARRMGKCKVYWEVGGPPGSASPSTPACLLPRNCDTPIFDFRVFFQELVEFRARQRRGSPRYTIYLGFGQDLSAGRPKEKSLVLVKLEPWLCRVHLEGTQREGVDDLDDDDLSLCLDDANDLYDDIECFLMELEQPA
| Oligonucleotide | log fluorescence [z-score] |
| --- | --- |
| TTAGATCTCGGTATCGATTAGTGCTAG | 1.27 |
| GACGGTTTCCTTCTCCTGCCGTGCTAG | 2.3 |
| CTTCACATATAATTTTGTCATGTGCTA | 0.117 |
| TTAGATTTCGGGGATCGATTAGTGCTA | 0.454 |
| ATAGATCTCAGTATCGATTAGTGCTAG | 0.953 |
| GACGATATCGGGTATCGAAACGTGCTA | 0.375 |
| TTAGGACTGGGTTTGGGTTAGTGCTAG | 0.316 |
| GACGAACTGAGTAACGAGACGTGCTAG | -0.0768 |
| GACTGTTTCGACACTGGGGACGTGCTA | 1.69 |
| GACGGTCTCGGTTTCAGGACGTGCTAG | 6.12 |
| GACGGACTGGGGACTGGGAACGTGCTA | -0.607 |
| GGTTTTTACTTTCTGAATGCGTGCTAG | 3.23 |
| CTAGGTTTCGGACTGGGTTAGTGCTAG | 4.66 |

Block 3 — method: DHFR PCA, deep sequencing; matrix: yeast; with: (+)-ABA 2500 µM; relative to: wild-type fitted maximum; direction: higher = stronger binding
Target: ABI1, truncated, D143A, DHFR fusion (Arabidopsis thaliana)
Setting: methotrexate growth selection, single substitutions
Starting sequence: PYL1, truncated, DHFR fusion (Arabidopsis thaliana); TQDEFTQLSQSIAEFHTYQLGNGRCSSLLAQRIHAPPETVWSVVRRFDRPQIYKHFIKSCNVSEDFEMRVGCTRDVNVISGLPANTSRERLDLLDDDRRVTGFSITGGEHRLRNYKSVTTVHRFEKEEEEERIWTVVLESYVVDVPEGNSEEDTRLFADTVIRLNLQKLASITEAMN
| Variant | relative binding score [%] |
| --- | --- |
| E147Y | 95.3 |
| D92Q | 93.3 |
| G108D | 89.9 |
| D92V | 90.3 |
| G102T | 74.9 |
| Q10D | 107 |
| K168M | 92.9 |
| C25F | 93.1 |
| H16I | 30.5 |
| V70H | 91.9 |
| T73K | 94 |
| C60F | 60.5 |
| A170I | 54.8 |
| D65Y | 94.1 |
| G21T | 98 |

Block 4 — method: RNA Bind-n-Seq; form: RNA; matrix: in vitro; tested at: 1 µM; setting: whole 134-nt RNA, ends assumed; with: 150 mM KCl; relative to: input library; direction: higher = stronger binding
Target: Ras GTPase-activating protein-binding protein 1, RRM domain (G3BP1, Homo sapiens, UniProt Q13283)
UniProt Q13283, sequence (whole entry, looked up): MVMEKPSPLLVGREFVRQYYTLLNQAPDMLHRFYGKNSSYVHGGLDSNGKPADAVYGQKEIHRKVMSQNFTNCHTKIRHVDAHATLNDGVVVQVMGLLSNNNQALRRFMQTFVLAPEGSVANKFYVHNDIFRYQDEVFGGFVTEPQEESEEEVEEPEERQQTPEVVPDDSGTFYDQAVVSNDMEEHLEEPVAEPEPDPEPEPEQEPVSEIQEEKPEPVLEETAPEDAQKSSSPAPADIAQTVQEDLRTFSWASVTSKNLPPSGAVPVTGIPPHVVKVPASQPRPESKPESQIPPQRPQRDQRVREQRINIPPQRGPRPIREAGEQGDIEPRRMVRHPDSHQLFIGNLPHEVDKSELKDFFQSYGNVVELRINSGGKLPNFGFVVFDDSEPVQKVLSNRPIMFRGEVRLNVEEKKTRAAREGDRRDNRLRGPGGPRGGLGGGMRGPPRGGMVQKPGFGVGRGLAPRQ
All sequences stand within: GGGAGUUCUACAGUCCGACGAUC … UGGAAUUCUCGGGUGUCAAGG
| Oligonucleotide | log2 enrichment |
| --- | --- |
| UGUGCUACACAUCGUAUGUACCGAAUCGGGUUUUUUUGGGGUUUUUUUGGGGUUUUUUUGGGAAAGUAUUAUGUUACGCCGUUCGGAUCU | -0.0982 |
| CCUCAAGUCCUGUGCUACACAUCGUAUGUACCGAAUCGGAAAGGAGGAAAGGAAAGUAUUAUGUUACGCCGUUCGGAUCUGCACUUCCAG | -0.159 |
| UCAAGUCCUGUGCUACACAUCGUAUGUACCGAAUCGGGAAAAAGGGUGGGAGGGAAAGUAUUAUGUUACGCCGUUCGGAUCUGCACUUCC | 0.645 |
| UUGGCUACAAUGCAGAGACACAGAAACUACUAUGCAAGAAUGGGGAAACGCUGCUAGGAGCCGUGAACUUCUUUGUCUCUAGCAUCAACA | 0.043 |
| UGGUAAGAAAUCUGCUUGUUUUAUUAAAAUGCUUAAUUGAAGAAAAUAAUAUUCUUCUGUGAUUAAAAUUAGGAAGAAAUAGAACCAUUU | -0.0906 |
| ACCAUGCAGGUGGGCAUCUUAAAGAAGUGGGGCAAGGGGGGGAUAGGGAGGGGGGUAACACUUUGGGAACAGGUGGUCCCAGGUCGUUUC | -0.417 |
| ACCAUGCAGGUGGGCAUCUUUGGGAAGUGGGAAAAGGGGGGGAUAGGGAGGGGGGUAACACUUUGGGAACAGGUGGUCCCAGGUCGUUUC | -0.371 |
| UCCUGUGCUACACAUCGUAUGUACCGAAUCGGGGUGGGGAAAAAAAGGGGUUUUUGGGGAAAGUAUUAUGUUACGCCGUUCGGAUCUGCA | 0.865 |
| UUCAAGGAAAAACAAGAGGAGCAGGCUCGCCUCCUUGAUGAACUGGCAGGCAAGCUACAAAGCCUAGACCUUUCAGCCGCUGCCGAAAUG | -0.151 |
| UCAAGUCCUGUGCUACACAUCGUAUGUACCGAAUCGGGUUUGGUUUGGGGUUUGGAAAGUAUUAUGUUACGCCGUUCGGAUCUGCACUUC | -0.352 |
| UGGGAGGUGGAUUUUGUUUAUUUUUUUAGCUCAUUGCCAGGGGUGGGAAUUUUUUUUUAAUAUGUGUCAUGAAUAAAGUUGUUUUUGAAA | 1.8 |
| GCAGGAAGUAAAAACAAAUGGAAAUGCUUCGGAUAGUGGCAGGGGUGGGGGUUGCUAAGGAAAGGGUGGGAUGGGAUUGGGUAAAGAGUU | 1.45 |
| CCUCAAGUCCUGUGCUACACAUCGUAUGUACCGAAUCGGGGCGGGCGGCGGGGAAAGUAUUAUGUUACGCCGUUCGGAUCUGCACUUCCA | -0.16 |
| UCCUCAAGUCCUGUGCUACACAUCGUAUGUACCGAAUCGGGCGGCGGCGGGGAAAGUAUUAUGUUACGCCGUUCGGAUCUGCACUUCCAG | 0.0251 |

Block 5 — method: RNA Bind-n-Seq; form: RNA; matrix: in vitro; tested at: 365 nM; relative to: no-protein control; direction: higher = stronger binding
Target: RNA binding protein fox-1 homolog 2, RRM domain, GST-SBP tag (RBFOX2, Homo sapiens, UniProt O43251-10, residues 100-194)
Setting: natural RNA segment, single round, ends assumed
All sequences stand within: GGGAGUUCUACAGUCCGACGAUC … UGGAAUUCUCGGGUGCCAA
Residues (chain): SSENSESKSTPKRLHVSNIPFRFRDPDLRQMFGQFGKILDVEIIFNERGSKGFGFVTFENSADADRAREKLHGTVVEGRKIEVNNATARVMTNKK
| Oligonucleotide | RBNS enrichment (R) |
| --- | --- |
| CCUCAAACUCCUCUGUGACCAGUUUUGUCUCCAAGCACAUAACUCAUUCUCUCUAAUCUGAUGUCUCUGAAGAGCCUCACAGAGACAGUGGUAUGGCUGAACCCAUCGGA | 0.55 |
| GUCCCAGGGCAGCCGAGGCCAGCCCUGCCUGGGUUGGAGAAACUGACUUUGUGCCUUAAGUCUACUCAGUGCCUGGUGAAGCCACCCUCAGCCCUUCACAGGCCUGAACC | 0.364 |
| UUGAGUAAACCUUUUUAGUUUUUACCUCAGCAGAGUGUUAGUAUGGCUGCUUUGCAGUCCCUGCUAAAGGGACCACCAGAGGGAGGGACAGUUCGUACGGCCCUCUCAGC | 0.227 |
| GAAGGUCCCCCAACUCAGUUUUUUGCUUCUGCCAGGGAGCCUAAGUACCCACCCCGUCCACCUCCCCCAUGAAGGCAGCUGAGCUUUCAGAGCUGGGUUCAAAAAGAAAA | 0.399 |
| ACAGGGCCUGGUGUUCUACCCCAUCUGGCCCCUGGCCCAUCUCUUCUGUGCCUUAGUCACAUAUGAAAGCGCCCCUCCCUGGCUCCCCAUCUGUCCCACACGCUCCCUGG | 0.367 |
| GGGGGAGCAGCUGAGGCUUGGGGCCUUGCUCCCUGGGACAUUCUCUCCAUCUUUUGGUGCAUUGGCCAUAUUACUGUGCCAAUAGUGUCUUAACUCAUGUCCCAUCUAUC | 0.695 |
| CAGAGGUUUCUUGAAUAUCUGCCCCAGUAGUCAGAAGCAGGUUCUUGAUGUCAUGUACUUCCUGUGUACUCUUUAUUUCUAGCAGAGUGAGGAUGUGUUUUGCACGUCUU | 0.578 |
| CCCCGCCUUGGAAGGGCACACUGGGGAGGGGAAUGUCUCCACCAUUGAUAGCAUAGACUGGUCACCCUGGACGUGCUUCAAGGUACUGUUCCCACUGAGCCUGUGCUUGC | 0.549 |
| CCCUGGAUAUCCCCUGUCUUAGUGGGUCUGCCAAGGUCUUGUCAGUCUUUUUCUGGUUUUGCUCAAGUUGAAGAAUGCGUGGAGAGUCUUCUGGUGAGACAUCCUCUGUC | 0.545 |
| GUCACAGGUAAAAUCAGUGUUGGGAAUUAUAAUUUGAGAAAAAUAUUACCCAGUAACAUUGAAUGUAGAUGGCUAAACGAUUCUUACUCAGUGUGAUGUAUAAUGAUGCA | 2.2 |
| ACUAAUGGGCAGGUAAAGUCACAACUGUGGUUAUUUUGGUUUUGUUUUGGUUUUUGGUUUUUUUAUCCUUUUACUCCAAUACUCCCCCUGUCACUUUGCCUGGAGGUGCU | 0.778 |
| AGGAGGUUAGCCGUUAUUUACCAACUUUCAAGAACGUAAUCUUGUUCAAUAAGGUGAAAUAUCAAUGAUUGGUACACAGUCACAAUGUACCGUUAAAAUAUGCACUAAGU | 0.331 |

Single results of other studies — method: cross-linking MS
| Molecule | partner | test system | setting | measurement | value |
| --- | --- | --- | --- | --- | --- |
| EIF2S2 (Homo sapiens, UniProt P20042) | ANO10 (Homo sapiens, UniProt Q9NW15) | cell fractions | with: DSSO | cross-linked residues | K99 to K636 |
| PSMD12 (Homo sapiens, UniProt O00232) | PSMD13 (Homo sapiens, UniProt Q9UNM6) | – | hits only | interaction screen | cross-linked |
| MYH9 (Homo sapiens, UniProt P35579) | MYH10 (Homo sapiens, UniProt P35580) | – | hits only | interaction screen | cross-linked |
| MCM4 (Homo sapiens, UniProt P33991) | MCM6 (Homo sapiens, UniProt Q14566) | cell fractions | with: DSSO | cross-linked residues | K549 to K205 |

A few entries again (block 3):
| Variant | relative binding score [%] |
| --- | --- |
| G108D | 89.9 |
| K168M | 92.9 |
| D65Y | 94.1 |
| H16I | 30.5 |
| E147Y | 95.3 |
| C60F | 60.5 |
| A170I | 54.8 |
| G102T | 74.9 |
| V70H | 91.9 |
